Results collected from several papers.
Protocols differ between the studies behind these lines. ± gives the spread as reported. Values after ≈ are worked out from the molar mass of the structure shown.

For `CC(=O)c1c(C)c2cnc(Nc3ccc(C4CCN(CCS(C)(=O)=O)CC4)cn3)nc2n(C2CCCC2)c1=O`, the AUC(0-t) was 555 ng·h/mL (beagle dog, male, plasma; oral, 6 mg/kg, day 28, repeated dosing 4 weeks).
`O=S(=O)(Nc1ccccc1)c1ccc(NC(=S)Nc2ccccc2)cc1` — result for “blood chemistry level”: 0.7 mg/dL (item: TBIL; male mouse, blood; oral, 80 mg/kg daily, 14 days).
`N[C@@H]1c2ccccc2OC12CCN(c1cnc3c(N4CCCc5ncccc54)n[nH]c3n1)CC2`: “serious TEAE grade ≥3” 0% (advanced solid tumour patients; oral, 10 mg once daily).
`O=C1[O][Pt]2([NH][C@@H]3CCCC[C@H]3[NH]2)[O]C1=O` — result for “tumour to organ ratio”: 0.4 (AUC-based, item: platinum; BALB/c mice, CT26 tumour; iv; baseline: tumour over kidney).
For `CC(C)CC(=O)OC[C@H]1O[C@@](C#N)(c2ccc3c(N)ncnn23)[C@H](O)[C@@H]1O`, the remaining compound was 0% (Rats plasma; 5 µM, 60 min).
`CNC(=O)c1cc(Oc2ccc(NC(=O)Nc3cc(C(C)(C)C)nn3-c3ccc4ncccc4c3)c(F)c2)ccn1` has a related SAE of 2% (NCI CTC v3.0; human patients; oral, all dose levels).
For `Nc1ncc(-c2nc(N3CCOCC3)nc(N3CCOCC3)n2)c(C(F)F)n1`, the thermodynamic solubility was 3.8 µM (≈ 1.5 µg/mL) (shake flask; buffer; 24 h, pH 4.5, 25 °C).
`CC(C)[C@@H](CN1CC[C@@](C)(c2cccc(O)c2)[C@@H](C)C1)NC(=O)[C@@H]1Cc2ccc(O)cc2CN1C` gave an AUCtotal of 351 ng·h/g (rat, brain; intraperitoneal, 5 mg/kg).
For `O=C(Nc1ccccc1)C1CCN(C(=O)Oc2cccnc2)CC1`, “change in internal perception score” read 0 (psychotropic effects VAS; healthy women; 60 mg; baseline: pre-dose baseline, direction not given).
`C[C@H]1CN(C(=O)CC#N)[C@]12CCN(c1ncnc3[nH]ccc13)C2` — result for “AUC at NOAEL”: 149 ng·h/mL (minipig, male; dermal, 20 mg/kg repeated, 9 months).
The AUC of `Cn1ncc(-c2nc(N[C@H]3CC[C@H](N)CC3)ncc2Cl)c1CC1CC1` is reported as 573 ng·h/mL (HPLC-MS/MS; patients, plasma; oral, 8 mg, day 1).
The PR change of `C[C@H]1COCCN1c1nc(NCc2cccnc2C(F)(F)F)c2cccnc2n1` is reported as 5.5% (anaesthetized rat; intravenous, 3 mg/kg; baseline: control).
`Cc1c(C(=O)O)ccc2c3n(nc12)[C@@H]1[C@H](C3)N(CC2CC2)[C@@]2(C(=O)Nc3cc(Cl)ccc32)[C@H]1c1cccc(Cl)c1F` has a tumour concentration of 29 ± 11 nM (athymic nude mice, orthotopic brain tumour PDX, tumour; 2 mg/kg single, 24 h).
Under “residue storage stability”, `COc1ccnc(C(=O)N[C@H]2COC(=O)[C@H](Cc3ccccc3)[C@@H](OC(=O)C(C)C)[C@H](C)OC2=O)c1OCOC(=O)C(C)C` is recorded as 6 months (germ; -18 °C).
`CCC[C@@](N)(CO)CCc1ccc(OCCCCCC(C)C)cc1` gave a Tmax of 6 h (hound dogs, male; oral, 10 mg/kg, capsule, fed state, median).
`COc1cc2c(Oc3ccc4[nH]c(C)cc4c3F)ccnc2cc1OCC1(N)CC1`: “grade 1 or 2 Myalgia” 14.7% (paediatric recurrent refractory sarcoma; concentration not given, whole group).
For `CO[C@H]1C[C@@H]2CC[C@@H](C)[C@@](O)(O2)C(=O)C(=O)N2CCCC[C@H]2C(=O)O[C@H]([C@H](C)C[C@@H]2CC[C@@H](OC(=O)NCCOCCOCCOCCOCCOCCOCCOCCOCCC(=O)N3CCc4cc(Cn5nc(-c6ccc7oc(N)nc7c6)c6c(N)ncnc65)ccc4C3)[C@H](OC)C2)C[C@@H](O)[C@H](C)/C=C(\C)[C@@H](O)[C@@H](OC)C(=O)[C@H](C)C[C@H](C)/C=C/C=C/C=C/1C`, the TRAE incidence was 25% (phase 1 dose escalation, item: mucositis; advanced solid tumour patients; intravenous, 12 mg weekly, grade ≥3).
`Cc1cn([C@H]2O[C@@H](CO[P@@](=O)(N[C@@H](C)C(=O)OC(C)C)Oc3ccccc3)[C@H](O)[C@H]2F)c(=O)[nH]c1=O`: “patients with TEAE” 0% (item: Inflammation; human; 25 mg).
Under “AST increased any grade”, `CCN1CCN(Cc2ccc(Nc3ncc(F)c(-c4cc(F)c5nc6n(c5c4)[C@H](C)CCC6)n3)nc2)CC1` is recorded as 25% (patients with advanced solid tumours; dose not given, phase Ia monotherapy).
For `CC(C)C[C@H](NC(=O)[C@H](CCCCN)NC(=O)OCC1c2ccccc2-c2ccccc21)C(=O)N[C@H](C(=O)N[C@@H](Cc1ccccc1)C(=O)N[C@@H](Cc1ccccc1)C(=O)N[C@@H](CCCCN)C(=O)NCC(=O)N[C@@H](Cc1ccccc1)C(=O)N[C@@H](C)C(=O)N[C@@H](Cc1c[nH]c2ccccc12)C(=O)N[C@@H](CC(N)=O)C(=O)N[C@H](C(=O)N[C@H]1CSSC[C@@H](C(=O)N[C@@H](Cc2c[nH]cn2)C(=O)N[C@@H](CCCNC(=N)N)C(=O)N[C@@H](CCCNC(=N)N)C(=O)N[C@@H](C)C(=O)N[C@@H](CC(N)=O)C(N)=O)NC(=O)[C@H](C(C)C)NC(=O)[C@H](CCCNC(=N)N)NC(=O)[C@H](C(C)C)NC(=O)CNC(=O)[C@H](CC(N)=O)NC(=O)[C@H](CCCNC(=N)N)NC(=O)[C@H](Cc2ccc(O)cc2)NC(=O)[C@H](C(C)C)NC1=O)C(C)C)C(C)C`, “secondary structure content” read 29.6% (circular dichroism, item: Random-coil; PBS; 80 µM, pH 7.4, with: LTA 1 µM).
For `COC[C@@H](CC(C)C)NC(=O)c1ccc(C)c(C)c1`, “PCE to total erythrocyte ratio” read 0.529 (bone marrow erythrocytes, mouse Hsd:ICR (CD-1), female; oral, 624 mg/kg, 24 h).
`CCCCCC[C@H]1C(=O)O[C@H](C)[C@H](NC(=O)c2cccc(NC=O)c2O)C(=O)O[C@@H](C)[C@@H]1OC(=O)CC(C)C` has an LD50 of 6.13 mg/kg (BALB/c mice; intraperitoneal, 10 (unit not given)).
Under “subjects with severe TEAEs”, `C[C@]1(CO)Cc2ncn(-c3ccc(C#N)c(Cl)c3)c2C(=O)O1` is recorded as 0% (human; 20 mg single dose).
`C[C@@H]1NC(=O)[C@H](CCCCNC(=O)CO/N=C/C(=O)NCCCC[C@@H]2NC(=O)[C@@H](Cc3ccccc3)NC(=O)[C@H](CC(=O)O)NC(=O)CNC(=O)[C@H](CCCNC(=N)N)NC2=O)NC(=O)CNC(=O)[C@@H]2CCCN2C(=O)[C@H](CCCCNC(=O)CO/N=C/C(=O)NCCCC[C@@H]2NC(=O)[C@@H](Cc3ccccc3)NC(=O)[C@H](CC(=O)O)NC(=O)CNC(=O)[C@H](CCCNC(=N)N)NC2=O)NC(=O)[C@H](CCCCNC(=O)CN2CCCNCCNCCCNCC2)NC(=O)[C@H](CCCCNC(=O)CO/N=C/C(=O)NCCCC[C@@H]2NC(=O)[C@@H](Cc3ccccc3)NC(=O)[C@H](CC(=O)O)NC(=O)CNC(=O)[C@H](CCCNC(=N)N)NC2=O)NC(=O)CNC(=O)[C@@H]2CCCN2C(=O)[C@H](CCCCNC(=O)CO/N=C/C(=O)NCCCC[C@@H]2NC(=O)[C@@H](Cc3ccccc3)NC(=O)[C@H](CC(=O)O)NC(=O)CNC(=O)[C@H](CCCNC(=N)N)NC2=O)NC1=O` [copper-64 labelled] has a tissue uptake of 0.03 %ID/g (biodistribution after PET; mouse, U-87 MG tumour xenograft, blood; intravenous, 24 h).
`CN1CC[C@@H](c2c(O)cc(O)c3c(=O)cc(-c4ccc(C(F)(F)F)cc4Cl)oc23)[C@@H]1CO` — result for “patients with adverse event”: 12.5% (item: Dyspnea; B-cell malignancies or AML; oral, 100 mg, continuous dosing).
`CCN1[C@@H](C(=O)NC23CCC(C(=O)O)(CC2)CC3)[C@H](c2cccc(Cl)c2F)[C@]2(C(=O)Nc3cc(Cl)ccc32)C12CCCCC2` — result for “grade ≥3 Anemia incidence”: 9.1% (patients with advanced solid tumours; oral, 100 mg).
`CCc1ccc(CC/C=C/c2ccc3c(c2)C(=O)CC3)cc1` has a hematocrit of 46.8% (Sprague-Dawley rat, male, blood; oral, 120 mg/kg/day, 14 days).
`C=CC(=O)Nc1cc(Nc2nccc(Nc3cc(Cl)c(F)cc3C(C)(C)O)n2)c(OC)cc1N1CC[C@@H](N(C)C)C1`: “incidence of blood creatinine increased” 0% (treatment-emergent adverse events; human; oral, 50 mg, phase I clinical trial).
The equilibrium solubility of `CCCSc1ccc2nc(NC(=O)OC)[nH]c2c1` is reported as 131 ± 24.2 µg/mL (simulated gastric fluid; 24 h, pH 1.2, room temperature).

For quick reference, copied from above:
`CC(C)[C@@H](CN1CC[C@@](C)(c2cccc(O)c2)[C@@H](C)C1)NC(=O)[C@@H]1Cc2ccc(O)cc2CN1C` gave an AUCtotal of 351 ng·h/g (rat, brain; intraperitoneal, 5 mg/kg).
`CN1CC[C@@H](c2c(O)cc(O)c3c(=O)cc(-c4ccc(C(F)(F)F)cc4Cl)oc23)[C@@H]1CO` — result for “patients with adverse event”: 12.5% (item: Dyspnea; B-cell malignancies or AML; oral, 100 mg, continuous dosing).
For `CC(=O)c1c(C)c2cnc(Nc3ccc(C4CCN(CCS(C)(=O)=O)CC4)cn3)nc2n(C2CCCC2)c1=O`, the AUC(0-t) was 555 ng·h/mL (beagle dog, male, plasma; oral, 6 mg/kg, day 28, repeated dosing 4 weeks).
`C=CC(=O)Nc1cc(Nc2nccc(Nc3cc(Cl)c(F)cc3C(C)(C)O)n2)c(OC)cc1N1CC[C@@H](N(C)C)C1`: “incidence of blood creatinine increased” 0% (treatment-emergent adverse events; human; oral, 50 mg, phase I clinical trial).
For `CC(C)C[C@H](NC(=O)[C@H](CCCCN)NC(=O)OCC1c2ccccc2-c2ccccc21)C(=O)N[C@H](C(=O)N[C@@H](Cc1ccccc1)C(=O)N[C@@H](Cc1ccccc1)C(=O)N[C@@H](CCCCN)C(=O)NCC(=O)N[C@@H](Cc1ccccc1)C(=O)N[C@@H](C)C(=O)N[C@@H](Cc1c[nH]c2ccccc12)C(=O)N[C@@H](CC(N)=O)C(=O)N[C@H](C(=O)N[C@H]1CSSC[C@@H](C(=O)N[C@@H](Cc2c[nH]cn2)C(=O)N[C@@H](CCCNC(=N)N)C(=O)N[C@@H](CCCNC(=N)N)C(=O)N[C@@H](C)C(=O)N[C@@H](CC(N)=O)C(N)=O)NC(=O)[C@H](C(C)C)NC(=O)[C@H](CCCNC(=N)N)NC(=O)[C@H](C(C)C)NC(=O)CNC(=O)[C@H](CC(N)=O)NC(=O)[C@H](CCCNC(=N)N)NC(=O)[C@H](Cc2ccc(O)cc2)NC(=O)[C@H](C(C)C)NC1=O)C(C)C)C(C)C`, “secondary structure content” read 29.6% (circular dichroism, item: Random-coil; PBS; 80 µM, pH 7.4, with: LTA 1 µM).
